Published values pooled from the literature.
Each numbered part is a random draw from the data of one study; scales do not carry over between parts.

Series 1
Target: Interferon regulatory factor 7, full length, phosphomimetic (IRF7, Homo sapiens, UniProt Q92985, residues 1-503, S101K/S471D/S472D/S475D/S476D/S477D/S483D/S484D/S487D)
Sequence of UniProt Q92985 (whole entry, unmodified, looked up): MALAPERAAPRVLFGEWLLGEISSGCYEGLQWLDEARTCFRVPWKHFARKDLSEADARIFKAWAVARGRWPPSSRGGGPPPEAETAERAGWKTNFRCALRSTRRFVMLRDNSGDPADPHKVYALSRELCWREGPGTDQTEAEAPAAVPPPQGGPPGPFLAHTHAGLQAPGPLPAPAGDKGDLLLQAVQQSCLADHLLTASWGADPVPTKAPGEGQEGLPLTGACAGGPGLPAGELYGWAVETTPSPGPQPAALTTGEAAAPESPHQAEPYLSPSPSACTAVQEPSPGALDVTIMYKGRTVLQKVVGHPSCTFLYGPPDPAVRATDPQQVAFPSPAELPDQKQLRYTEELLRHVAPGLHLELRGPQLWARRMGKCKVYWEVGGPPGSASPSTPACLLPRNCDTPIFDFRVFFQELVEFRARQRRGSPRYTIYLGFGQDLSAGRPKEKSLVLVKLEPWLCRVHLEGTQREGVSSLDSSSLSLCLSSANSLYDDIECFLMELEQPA
Technique: protein-binding microarray
Form: double-stranded DNA, one strand shown
Sample: in vitro
Concentration: 250 nM
Notes: 60-bp whole probe
With: salmon DNA 0.4 mg/ml
Relative to: random background probes
Direction: higher = stronger binding
Shared flanks, not repeated: GCCTAGCAC … GTCTTGATTCGCTTGACGCTGCTG
Sequence | log fluorescence [z-score]
TTAGGTATCATTATCCTTTAGTGCTAG | 0.758
TTAGAAATGAGTTTCGATTAGTGCTAG | 8.26
TTAGGTATCAGACTGGGTTAGTGCTAG | -0.117
TTAGGACTGGGACTGGGTTAGTGCTAG | 0.0408
TTAGAGCTGAGTCTCGATTAGTGCTAG | 0.464

Series 2
Target: RNA binding protein fox-1 homolog 2, RRM domain, GST-SBP tag (RBFOX2, Homo sapiens, UniProt O43251-10, residues 100-194)
Technique: RNA Bind-n-Seq
Form: RNA
Sample: in vitro
Concentration: 365 nM
Notes: natural RNA segment, single round, ends assumed
Relative to: no-protein control
Direction: higher = stronger binding
Shared flanks, not repeated: GGGAGUUCUACAGUCCGACGAUC … UGGAAUUCUCGGGUGCCAA
Residues (chain): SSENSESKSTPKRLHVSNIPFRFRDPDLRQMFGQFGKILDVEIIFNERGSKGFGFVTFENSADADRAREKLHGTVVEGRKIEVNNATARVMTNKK
Sequence | RBNS enrichment (R)
UAGACUUGGGUUGUGGGAACAGUUGAUAAAGUUCUGGAAAGAUGCCAUUCAUUCUACAGUCUUCCCAAGGUGUCCUAGUCUCUCCCAGGCCCCUGUGAUUUUCUCACAUA | 0.242
CUAUUCAUUAUAGGGCUUGUAUAUAUAAUCUAAAAUGUCAGCAAGGCAUCGGAGAUGGGUUAACAUCUCAAAACAAAAUAGCCUACAAAUGUUCCUUGUGGGAGACUUUG | 0.443
CCCAUGAGAUCGGACACUGUCCGCAGUCCGAUAUGCCACCAGUGAGCUAGAGCAAUCCAGGAGACUGUUUGGUAGAUGUUCACAACUUCACCAAACUUAAAUAGCAGGAG | 0.366
CUGAAACUCAUGGGCUUACACAGAGGGAGCCAGGCAUGUUCUUCAGCCCAUCCAUCUCUUGGUUGCUAGUGAUUUUCAUAGAGUAGAUUGACUAGUAAGGUGUUGUAAGU | 2.26
UCAAGAUUAUGAAACUUUGCUGUGGGCCCUGCCUUUCCUUCACUUCUUCCUGUUCACCCUGGUGGUGUAUGGGUGAGGUGGGAAGGUGACCCCCCCCCCAAAUAUAUAUC | 0.285
UUAAGUAUGGGAACAGACUGAAAUGGUGUUUCAACCUGCAAGAGACAGAAGCAUAGACAAGUAUAUGAGCCCUUAUGUCCUUAAUGCCAAUCAACUAGAUUGACCUAGGU | 0.401

Series 3
Target: Sal-like protein 4, full length isoform A (SALL4, Homo sapiens, UniProt Q9UJQ4, residues 1-1053)
Sequence of UniProt Q9UJQ4 (whole entry, looked up): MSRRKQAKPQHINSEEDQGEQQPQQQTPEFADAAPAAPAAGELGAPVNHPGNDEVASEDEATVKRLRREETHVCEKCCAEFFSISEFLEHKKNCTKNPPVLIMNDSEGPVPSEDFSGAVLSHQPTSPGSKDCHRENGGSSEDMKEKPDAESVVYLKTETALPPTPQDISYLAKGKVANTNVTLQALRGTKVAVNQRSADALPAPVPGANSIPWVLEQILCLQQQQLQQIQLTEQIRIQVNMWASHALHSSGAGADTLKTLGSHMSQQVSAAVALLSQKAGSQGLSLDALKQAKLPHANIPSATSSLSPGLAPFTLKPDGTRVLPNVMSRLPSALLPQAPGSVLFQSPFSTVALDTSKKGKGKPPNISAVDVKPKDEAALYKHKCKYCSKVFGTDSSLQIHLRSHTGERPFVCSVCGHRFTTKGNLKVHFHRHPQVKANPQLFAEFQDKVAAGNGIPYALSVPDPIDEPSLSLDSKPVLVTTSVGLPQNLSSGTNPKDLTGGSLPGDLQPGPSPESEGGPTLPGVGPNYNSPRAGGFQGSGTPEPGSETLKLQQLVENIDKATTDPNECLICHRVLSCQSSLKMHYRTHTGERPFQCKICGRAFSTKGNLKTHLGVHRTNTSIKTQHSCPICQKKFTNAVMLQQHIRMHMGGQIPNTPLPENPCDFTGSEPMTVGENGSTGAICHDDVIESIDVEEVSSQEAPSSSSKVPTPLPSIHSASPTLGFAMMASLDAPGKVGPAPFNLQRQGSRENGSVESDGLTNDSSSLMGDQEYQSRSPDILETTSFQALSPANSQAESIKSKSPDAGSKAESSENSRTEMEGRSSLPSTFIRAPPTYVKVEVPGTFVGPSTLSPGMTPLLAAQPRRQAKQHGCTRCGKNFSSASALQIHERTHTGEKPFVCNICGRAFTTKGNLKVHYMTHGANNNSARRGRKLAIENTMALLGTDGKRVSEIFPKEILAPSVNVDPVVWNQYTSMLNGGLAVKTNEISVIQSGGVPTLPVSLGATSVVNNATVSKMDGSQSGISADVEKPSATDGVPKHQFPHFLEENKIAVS
Technique: universal PBM
Form: double-stranded DNA, one strand shown
Sample: in vitro
Concentration: 600 nM
Notes: 8-mer, flanks averaged, mean of replicates
Direction: higher = stronger binding
Sequence | E-score
CGCAAGCG | -0.119
ACCAGTCA | -0.0961
TATACTAA | 0.288
GTTACTTA | 0.237
AACCGCCC | -0.318

Other studies, line by line
Molecule | target | assay | test system | conditions | scale | quantity | value
PhoQ, residues 284 288 289 292 302 303 SASVAL | PhoP, residues 12 14 15 18 19 NYFRM (Escherichia coli, UniProt P23836) | Sort-seq, item: YFP reporter | E. coli | PhoQ-PhoP variant library, with: 10 µM Mg2+ | relative to: high Mg2+ state, higher = stronger signaling | fold induction | 1.9

Repeated from above (series 1):
Sequence | log fluorescence [z-score]
TTAGGTATCAGACTGGGTTAGTGCTAG | -0.117
